Measurements of several laboratories.
Numbered parts are unrelated; each lists some results of a single study. Substitutions count along the parent as printed.

Set 1
Target: Sal-like protein 4, full length isoform B (SALL4, Homo sapiens, UniProt Q9UJQ4-2, residues 1-616)
Technique: universal PBM
Molecule type: double-stranded DNA, one strand shown
Medium: in vitro
Tested at: not given
Notes: 8-mer, flanks averaged, mean of replicates
Direction: higher = stronger binding
Sequence	E-score
CAATCGTG	0.0915
ACGTTGAA	-0.00934
GCGTAATA	0.294
CCCACGAA	-0.136
CGCGCGTA	-0.244
GTATAGGA	0.156
CTTCACTA	0.144
ACAAGCAT	-0.00769
AATCGTGC	0.0402
AATAAGGC	0.177
CCTAAACA	0.0539
CCAGCCAG	-0.302
AAGCGATT	0.119
AGAGATAC	-0.0184
AGTTTGTC	0.106
ACTTAGGG	-0.0747
GAGCTATC	-0.145
CTTTAGGA	0.0299
ACTGCTTA	0.075
AAAGTAAC	0.112
AGTAAGCG	-0.0981
CAGAGACC	-0.189
AGTGTCCA	-0.0315
ACCAACCT	-0.113

Set 2
Target: RNA binding protein fox-1 homolog 2, RRM domain, GST-SBP tag (RBFOX2, Homo sapiens, UniProt O43251-10, residues 100-194)
Technique: RNA Bind-n-Seq
Molecule type: RNA
Medium: in vitro
Tested at: 365 nM
Notes: natural RNA segment, single round, ends assumed
Baseline: no-protein control
Direction: higher = stronger binding
Constant ends, left off below: GGGAGUUCUACAGUCCGACGAUC … UGGAAUUCUCGGGUGCCAA
Residues (chain): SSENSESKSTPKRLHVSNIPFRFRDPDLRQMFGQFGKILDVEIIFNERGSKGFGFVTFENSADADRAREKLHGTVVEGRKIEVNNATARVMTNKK
Sequence	RBNS enrichment (R)
GACCUGUCACGAGCCUCUGCAGGUGCCUGCUCACCAUGGCCCAGCGCCACUCUGUCCUCCGACUCAGGUGAGGGGGCAGCCCACAGACCUGCUCCUCAGUAGCAGGGCCU	0.204
AUGGCCCUGUAGCUCUGAAUGCUAUUUGUGUAACUGAAAGGUUGCACUCUAGGGUGAACCAAGCUAUAAAAGCCCAUGCUUAAAUAAAAAUUAUGUCCAAAAGCCAUUGA	0.398
GAGAAAGUUUGCUGACUUUUGUAACAUUGGCUGCCUUUGUGCAGAAGAAAAAAACAUGGUAGGGAAGGAGCUCUGCUGCCUCUUUGCCCUACAACCAUGGCAUUGCAAAA	0.432
AAACCUUAUUAGCAAAUCUUUAGAUUCUGACUUAGCCAGAGCAUCUGAGUGUUCAAGUACAGUUUUACAGUGGCUAAGGUUGUCUCUUGAUCUUUUUUCUCCGUUGUGUG	0.461
AUUUAUGUUUUUAGUUUAUAUGCAAAGAAUUGUGAUAAUUUUAUAAUAAAUAUUUUUAUUAUAAUAGAAUGUGGUCUUAUAAAAUUCUUUUCUUGAAUAAUCUCAAAGUA	6.05
UAUUCCCUGUUGGUUCCUGUUUCACUGGCUGUUUUAGCUUUGUGUUGAUUGGUGUUUCUGAGCAUUCAGACUCCGCACCCUCAUUUCUAAUAAAUGCAACAUUGGACCCG	0.278
UUACUGUGGCCCUCUUGUCUGGCAGCCUGGAGCCCAGGGAGGGACAGGGGCUUAUAGCUGCUGUAUGAGAACAUAAAGACUAGUGCACAGUGCUAUCUCCAUCUACUGAC	0.544
AUUGUAUAGUAGUUUAGUAACUAUGAAGACUGGUUUGUAAGGAAGGAAACGUUUACUACUAAGGUUAGGCCUGCAGUUGCUCUGGAACAUUCCAUGGAGAAUGCAUUCAU	0.487
UUAAAAAGAUAAACGGAUUUGAGCCUCCCUGAUUUCAAUCAAGAGCCCUGUGUGUGGAAUUCCAGAUUUUUCUUUUCCUUUAAUAUCACUUUAUGGGUUCUAGAUGAUGU	0.276
ACCCAAAAGUCAAUGUAGACCUACGAAACGGUCAGGUGAUGGGCUAGGGACGUAUCUUCAAACUCCAUUUCUUCCUCUGUAGUAGCCCAGUCCAGGACUUUGGAACCCUG	0.63
CAAUAAGCACUACACAUCUGCCACCAACAAUGUUGUUUGCAUUUACCUUACCAAUAUUAAUCCCAGCGUGGUAACUCUGUGUGACCCCGAUAACAUUUUGUAACAUUGUG	0.526
UUCCACUUGUAUAAUUUAAGUCUUAGCUCUUUCAGAUGCAAGAAACUUAUACUAUUAAAAUUGUUGCGAUGUCACUUAGCUUGACUUUAAAGUUGGCUGGACUGUUAUAC	0.417

Set 3
Target: Histone acetyltransferase KAT6A, winged helix 1, GST fusion (KAT6A, Homo sapiens, UniProt Q92794, residues 1-85)
Technique: protein binding microarray
Molecule type: double-stranded DNA, one strand shown
Medium: in vitro
Tested at: not given
Notes: 8-mer, flanks averaged, mean of 2 arrays, mostly near background
Baseline: not given
Direction: higher = stronger binding
Target sequence (chain): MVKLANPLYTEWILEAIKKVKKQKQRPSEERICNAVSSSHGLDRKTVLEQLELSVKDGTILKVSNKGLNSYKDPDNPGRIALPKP
Sequence	E-score
CACTGAAC	-0.0642
GTCTGTTA	-0.0905
CCTAAGCG	0.193
ATCTAGGG	-0.293
AGCGACGG	0.43
ATCACACC	-0.0889
TACCATAA	-0.0858
CGTAACAC	0.153
GCTCAATA	-0.156
CTTTATGA	-0.144
GTACGATA	-0.0775
CCGCGCGG	0.462
CAGCCAGG	-0.265
CTATCGTC	0.00846
ATCGCCAC	0.0622
GGATCCCA	-0.139
TCGCATAA	-0.0338
ACCTCGCA	0.0164
CGCCAAAA	0.0955
AATCCTGT	-0.216
AAGATGCA	-0.151
ACGGATCC	0.305
CCGTACGC	0.45
CCCGCCAG	0.238
AATCCTTG	-0.137

Set 4
Target: ABI1, truncated, D143A, DHFR fusion (Arabidopsis thaliana)
Technique: DHFR PCA, deep sequencing
Medium: yeast
Notes: methotrexate growth selection, single substitutions
Together with: (+)-ABA 2500 µM
Baseline: wild-type fitted maximum
Direction: higher = stronger binding
Starting sequence: PYL1, truncated, DHFR fusion (Arabidopsis thaliana); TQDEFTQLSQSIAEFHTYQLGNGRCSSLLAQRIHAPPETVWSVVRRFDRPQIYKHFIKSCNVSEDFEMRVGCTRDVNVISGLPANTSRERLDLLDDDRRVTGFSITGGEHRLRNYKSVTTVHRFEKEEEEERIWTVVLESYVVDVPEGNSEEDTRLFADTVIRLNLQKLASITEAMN
Variant	relative binding score [%]
H16Y	32.8
R132K	106
E139S	94
E67W	91
V76E	20.7
I12Q	96.1
R90H	90.6
H16C	39.2
V100L	96.5
R32L	85
F56D	3.72
L29F	77.8
L166P	19.1
S87G	61.9
K126T	108
P36V	91.1
V70C	92
E14S	85.6
E174G	93.6
D3V	91.1
V142H	92.8
V136E	86.4
E129D	97.3
Y18S	96.4

Set 5
Target: CCNA2, cyclin fold, Cln2 fusion (human)
Technique: yeast growth competition, sequencing
Medium: yeast
Notes: strong parent motif
Baseline: not given
Direction: higher = stronger binding
Starting sequence: RBL2 docking peptide (human); STTRRRLFVENDS
Variant	normalised enrichment score
STTRRRLFVENKS [D12K]	5.85
STTRERLFVENDS [R5E]	0.016
STRRRRLFVENDS [T3R]	3.36
SPTRRRLFVENDS [T2P]	3.82
STTRKRLFVENDS [R5K]	4.72
STTTRRLFVENDS [R4T]	0.457
STTRRRLFVENTS [D12T]	5.33
STQRRRLFVENDS [T3Q]	1.05
STTRRRLKVENDS [F8K]	0.891
SWTRRRLFVENDS [T2W]	5.03
STTRRRLVVENDS [F8V]	0.259
STTRGRLFVENDS [R5G]	0.416
CTTRRRLFVENDS [S1C]	6.2
STTRRRLWVENDS [F8W]	2.5
STTRRRLFYENDS [V9Y]	6.34

Set 6
Target: Prothrombin, mature alpha-thrombin (F2, Homo sapiens, UniProt P00734)
Technique: aptamer microarray, sandwich
Molecule type: DNA with 2'F-ANA
Medium: in vitro
Tested at: 200 nM
Notes: whole 15-mer aptamer, many near background
Together with: Cy3 exosite-II aptamer, 400 nM
Direction: higher = stronger binding
Sequence: GGTTGGTGTGGTTGG
Modification	mean fluorescence intensity [a.u.]
2'F-ANA at 1 2 3 4 5 7 10 11 13	46.5
2'F-ANA at 1 5 6 8 9 10 12 15	48.3
2'F-ANA at 2 4 5 7 9 12	147
2'F-ANA at 1 2 3 7 8 13 15	237
2'F-ANA at 3 5 7 9 10 13 14	69.7
2'F-ANA at 3 5 8 9 10 11 14 15	60.5
2'F-ANA at 2 4 7 9 12 14 15	130
2'F-ANA at 2 3 4 5 7 10 11 12 13 15	61.8
2'F-ANA at 2 3 4 5 6 8 9 13 15	58.7
2'F-ANA at 2 3 5 8 10 11 12 15	60
2'F-ANA at 1 2 4 5 6 8 10 11 12 15	48.9
2'F-ANA at 2 3 5 7 8 9 10 13 14	60.2
2'F-ANA at 3 4 7 9 10 11 12 14	201
2'F-ANA at 4 7 8 10 13 14 15	88.7
2'F-ANA at 3 8 9 10 11 12 13 14	436
2'F-ANA at 3 4 6 9 11 12 14	250
2'F-ANA at 1 3 4 5 7 8 10 14	55.6
2'F-ANA at 2 3 5 6 7 8 14 15	82.9
2'F-ANA at 4 6 7 14 15	88.6
2'F-ANA at 1 2 3 4 5 8 9 11 15	53.5
2'F-ANA at 1 3 5 9 10 11 13 14	43.8
2'F-ANA at 2 5 10 11 15	51.2
2'F-ANA at 8 10 11	163
2'F-ANA at 2 7 8 12 13 15	723
2'F-ANA at 1 2 3 5 9 12 13 14	42.5

Repeated from above (set 2):
Sequence	RBNS enrichment (R)
AUGGCCCUGUAGCUCUGAAUGCUAUUUGUGUAACUGAAAGGUUGCACUCUAGGGUGAACCAAGCUAUAAAAGCCCAUGCUUAAAUAAAAAUUAUGUCCAAAAGCCAUUGA	0.398
GAGAAAGUUUGCUGACUUUUGUAACAUUGGCUGCCUUUGUGCAGAAGAAAAAAACAUGGUAGGGAAGGAGCUCUGCUGCCUCUUUGCCCUACAACCAUGGCAUUGCAAAA	0.432
AAACCUUAUUAGCAAAUCUUUAGAUUCUGACUUAGCCAGAGCAUCUGAGUGUUCAAGUACAGUUUUACAGUGGCUAAGGUUGUCUCUUGAUCUUUUUUCUCCGUUGUGUG	0.461
AUUUAUGUUUUUAGUUUAUAUGCAAAGAAUUGUGAUAAUUUUAUAAUAAAUAUUUUUAUUAUAAUAGAAUGUGGUCUUAUAAAAUUCUUUUCUUGAAUAAUCUCAAAGUA	6.05
UAUUCCCUGUUGGUUCCUGUUUCACUGGCUGUUUUAGCUUUGUGUUGAUUGGUGUUUCUGAGCAUUCAGACUCCGCACCCUCAUUUCUAAUAAAUGCAACAUUGGACCCG	0.278
UUACUGUGGCCCUCUUGUCUGGCAGCCUGGAGCCCAGGGAGGGACAGGGGCUUAUAGCUGCUGUAUGAGAACAUAAAGACUAGUGCACAGUGCUAUCUCCAUCUACUGAC	0.544
AUUGUAUAGUAGUUUAGUAACUAUGAAGACUGGUUUGUAAGGAAGGAAACGUUUACUACUAAGGUUAGGCCUGCAGUUGCUCUGGAACAUUCCAUGGAGAAUGCAUUCAU	0.487
UUAAAAAGAUAAACGGAUUUGAGCCUCCCUGAUUUCAAUCAAGAGCCCUGUGUGUGGAAUUCCAGAUUUUUCUUUUCCUUUAAUAUCACUUUAUGGGUUCUAGAUGAUGU	0.276
ACCCAAAAGUCAAUGUAGACCUACGAAACGGUCAGGUGAUGGGCUAGGGACGUAUCUUCAAACUCCAUUUCUUCCUCUGUAGUAGCCCAGUCCAGGACUUUGGAACCCUG	0.63
CAAUAAGCACUACACAUCUGCCACCAACAAUGUUGUUUGCAUUUACCUUACCAAUAUUAAUCCCAGCGUGGUAACUCUGUGUGACCCCGAUAACAUUUUGUAACAUUGUG	0.526
UUCCACUUGUAUAAUUUAAGUCUUAGCUCUUUCAGAUGCAAGAAACUUAUACUAUUAAAAUUGUUGCGAUGUCACUUAGCUUGACUUUAAAGUUGGCUGGACUGUUAUAC	0.417
